Results pooled from the literature.
Each numbered part is a random draw from the data of one study; scales do not carry over between parts. Changes are numbered by the printed parent chain.
Chain of UniProt Q9Y2H9 (whole entry, looked up): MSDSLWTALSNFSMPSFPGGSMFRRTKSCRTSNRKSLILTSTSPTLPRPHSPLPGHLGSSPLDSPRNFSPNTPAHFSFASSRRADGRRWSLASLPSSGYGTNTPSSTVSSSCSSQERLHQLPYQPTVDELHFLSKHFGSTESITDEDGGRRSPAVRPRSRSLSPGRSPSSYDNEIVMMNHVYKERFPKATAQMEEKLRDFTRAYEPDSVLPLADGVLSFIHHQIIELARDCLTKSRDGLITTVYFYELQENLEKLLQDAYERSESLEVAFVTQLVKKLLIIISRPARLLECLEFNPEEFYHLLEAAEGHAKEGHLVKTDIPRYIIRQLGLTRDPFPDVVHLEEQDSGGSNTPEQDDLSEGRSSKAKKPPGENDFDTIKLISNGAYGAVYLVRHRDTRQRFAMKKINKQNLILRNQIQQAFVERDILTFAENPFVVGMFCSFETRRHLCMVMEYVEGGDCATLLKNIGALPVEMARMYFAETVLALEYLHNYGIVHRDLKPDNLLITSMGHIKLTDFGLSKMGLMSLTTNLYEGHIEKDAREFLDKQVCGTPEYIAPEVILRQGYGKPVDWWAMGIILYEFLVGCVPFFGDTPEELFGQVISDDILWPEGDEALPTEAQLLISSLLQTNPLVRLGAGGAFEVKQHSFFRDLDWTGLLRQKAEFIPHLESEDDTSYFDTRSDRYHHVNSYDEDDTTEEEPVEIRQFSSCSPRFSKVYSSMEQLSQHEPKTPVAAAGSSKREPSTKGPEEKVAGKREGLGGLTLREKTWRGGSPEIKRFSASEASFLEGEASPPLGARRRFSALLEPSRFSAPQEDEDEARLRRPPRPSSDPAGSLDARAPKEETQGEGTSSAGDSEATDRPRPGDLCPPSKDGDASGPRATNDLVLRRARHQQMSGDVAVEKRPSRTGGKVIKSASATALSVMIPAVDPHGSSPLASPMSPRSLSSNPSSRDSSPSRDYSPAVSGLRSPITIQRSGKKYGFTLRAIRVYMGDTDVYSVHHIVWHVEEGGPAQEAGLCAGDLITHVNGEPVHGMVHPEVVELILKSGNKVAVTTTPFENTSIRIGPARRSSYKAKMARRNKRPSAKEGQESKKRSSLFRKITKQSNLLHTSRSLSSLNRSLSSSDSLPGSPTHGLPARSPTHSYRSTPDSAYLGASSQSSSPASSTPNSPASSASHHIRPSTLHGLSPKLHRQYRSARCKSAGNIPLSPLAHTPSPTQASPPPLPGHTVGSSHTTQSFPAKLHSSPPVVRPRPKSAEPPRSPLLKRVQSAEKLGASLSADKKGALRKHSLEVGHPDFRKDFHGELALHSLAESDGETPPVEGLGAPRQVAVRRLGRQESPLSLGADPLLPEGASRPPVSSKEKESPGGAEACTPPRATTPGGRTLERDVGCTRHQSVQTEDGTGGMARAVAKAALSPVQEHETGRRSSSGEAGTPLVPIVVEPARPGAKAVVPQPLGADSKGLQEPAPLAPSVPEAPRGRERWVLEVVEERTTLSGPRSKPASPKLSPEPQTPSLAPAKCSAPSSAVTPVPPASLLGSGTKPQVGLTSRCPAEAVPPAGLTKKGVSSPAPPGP
Chain of UniProt P53779 (whole entry, looked up): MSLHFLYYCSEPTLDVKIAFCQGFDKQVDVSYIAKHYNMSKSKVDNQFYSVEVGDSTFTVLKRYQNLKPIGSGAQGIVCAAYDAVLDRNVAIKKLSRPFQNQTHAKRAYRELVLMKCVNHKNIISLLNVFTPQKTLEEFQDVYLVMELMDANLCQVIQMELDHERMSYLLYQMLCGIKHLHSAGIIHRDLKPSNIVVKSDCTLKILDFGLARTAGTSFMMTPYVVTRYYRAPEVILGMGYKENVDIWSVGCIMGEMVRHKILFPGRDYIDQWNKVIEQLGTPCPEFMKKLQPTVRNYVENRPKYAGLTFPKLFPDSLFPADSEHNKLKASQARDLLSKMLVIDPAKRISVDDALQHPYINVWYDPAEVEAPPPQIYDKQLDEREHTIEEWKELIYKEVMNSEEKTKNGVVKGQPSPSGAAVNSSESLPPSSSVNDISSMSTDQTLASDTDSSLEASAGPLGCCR

Block 1
Compound: C[C@@H](c1cccc(C#N)c1)n1cc(Cl)cc(C(N)=O)c1=N
Observed: cell-free assay
Method: competition with immobilised ligand
Tested at: 1 µM
| target | remaining binding [%] |
| --- | --- |
| MAPK10 (Homo sapiens, UniProt P53779) | 100 |
| MAST1 (Homo sapiens, UniProt Q9Y2H9) | 100 |
| EGFR (Homo sapiens, UniProt P00533, G719S) | 100 |

Block 2
Target: Testis-specific serine/threonine-protein kinase 2 (TSSK2, Homo sapiens, UniProt Q96PF2)
Observed: enzyme activity
Action: inhibitor
Tested at: 0.5 µM
Relative to: control
Target sequence (Q96PF2 1-358): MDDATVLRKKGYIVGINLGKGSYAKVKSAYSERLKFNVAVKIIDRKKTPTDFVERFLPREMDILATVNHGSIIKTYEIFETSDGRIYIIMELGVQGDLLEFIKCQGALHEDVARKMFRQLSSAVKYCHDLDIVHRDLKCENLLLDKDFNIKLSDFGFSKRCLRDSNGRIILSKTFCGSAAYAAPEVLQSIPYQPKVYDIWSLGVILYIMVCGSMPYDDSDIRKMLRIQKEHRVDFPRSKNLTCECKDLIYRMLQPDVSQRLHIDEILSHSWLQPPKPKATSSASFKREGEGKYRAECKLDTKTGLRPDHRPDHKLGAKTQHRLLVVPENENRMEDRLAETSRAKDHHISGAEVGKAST
| SMILES | remaining activity |
| --- | --- |
| c1ccc(-c2cnc(Nc3ccc(OCCN4CCCC4)cc3)s2)cc1 | 89% |
| COc1cc2ncnc(Nc3ccc(O)c(Br)c3)c2cc1OC | 98.7% |
| O=c1cc(-c2cccc3c2Sc2ccccc2S3)oc(N2CCOCC2)c1 | 97.7% |
| Cc1cn(-c2cc(NC(=O)c3ccc(C)c(Nc4nccc(-c5cccnc5)n4)c3)cc(C(F)(F)F)c2)cn1 | 73.5% |
| COc1cc2c(cc1OC)-c1[nH]nc(Nc3cccc(F)c3)c1C2 | 75.1% |
| CCN(CC)CCNC(=O)c1c(C)[nH]c(/C=C2\C(=O)Nc3ccc(Cl)cc32)c1C | 66.9% |
| O=C1C(Cl)=C(N2C(=O)CCC2=O)C(=O)c2ccccc21 | 103% |
| c1ccc(-c2[nH]ncc2-c2ccnc3ccccc23)nc1 | 83.5% |
| N#Cc1c(NC(=O)c2cccc3ccccc23)sc2c1CCCC2 | 104% |
| CCN(CC)C(=O)c1ccc(Nc2nc(OCC3CCCCC3)c3[nH]cnc3n2)cc1 | 87.4% |
| CCN(CC)CCNC(=O)c1c(C)[nH]c(/C=C2\C(=O)Nc3ccc(F)cc32)c1C | 72.9% |
| COc1cc2ncnc(Nc3cccc(Cl)c3)c2cc1OC | 94.8% |

Block 3
Target: JUNB, bZIP domain (human)
Method: DHFR protein complementation
Sample: yeast
Setting: single substitutions, most at no-binding floor
Relative to: wild-type JUN-FOS pair
Reading: higher = stronger binding
Starting sequence: JUN, bZIP domain (human); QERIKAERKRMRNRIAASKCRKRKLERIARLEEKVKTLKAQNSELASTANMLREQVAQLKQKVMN; partner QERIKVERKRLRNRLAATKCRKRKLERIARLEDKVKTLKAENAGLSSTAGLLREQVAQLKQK
| Variant | binding fitness [natural log] |
| --- | --- |
| L52W | -1.37 |
| A29Y | -1.36 |
| K39Y | -1.45 |
| V56Q | -1.51 |
| A57L | -1.24 |
| T37S | -1.21 |
| L45Y | -1.31 |
| A40L | -1.21 |

Single results of other studies
Method: cross-linking MS
| Molecule | partner | sample | setting | with | quantity | value |
| --- | --- | --- | --- | --- | --- | --- |
| SNRPA1 (Homo sapiens, UniProt P09661) | SF3A1 (Homo sapiens, UniProt Q15459) | cell fractions |  | DSSO | cross-linked residues | K221 to K188 |
| STBD1 (Homo sapiens, UniProt O95210) | YWHAE (Homo sapiens, UniProt P62258) | cell fractions |  | DSSO | cross-linked residues | S265 to K125 |
| DYNC1I2 (Homo sapiens, UniProt Q13409) | DYNC1H1 (Homo sapiens, UniProt Q14204) |  | hits only |  | interaction screen | cross-linked |
| CCDC14 (Homo sapiens, UniProt Q49A88) | DDX17 (Homo sapiens, UniProt Q92841) | cell fractions |  | DSSO | cross-linked residues | K821 to K592 |

A few entries again (block 3):
| Variant | binding fitness [natural log] |
| --- | --- |
| A57L | -1.24 |
| T37S | -1.21 |
| A29Y | -1.36 |
